Assay results gathered from unrelated publications.
Numbered parts are unrelated; each lists some results of a single study. Several values in a cell are separate wells, animals, samples, runs or records. Changes are numbered by the printed parent chain.

Set 1
Target: HLA class I histocompatibility antigen, A alpha chain, allele A*80:01 (Homo sapiens, UniProt P04439)
Observed: peptide-MHC binding
Form: peptide
Tested at: concentration not given
Quantity: binding
TTLRYPIGK: inactive
QQRPDLILV: inactive
WLGHPFTPV: inactive
KHDEEFCDM: inactive
AMDTHLYFE: inactive
SCINGQCPY: inactive
DGAEGINPY: inactive
EVIRATYPS: inactive
VILNYIPVL: inactive
VTECKLIYY: inactive
DLRPYGLIK: inactive
YNAKRIETV: inactive
MRNTIMASK: inactive
TFMDHVLRY: inactive
YILGFAIPI: inactive
WVIDTLNGI: inactive
PIPVGDIYK: inactive

Set 2
Target: Sal-like protein 4, full length isoform A (SALL4, Homo sapiens, UniProt Q9UJQ4, residues 1-1053)
Sequence of UniProt Q9UJQ4 (whole entry, looked up): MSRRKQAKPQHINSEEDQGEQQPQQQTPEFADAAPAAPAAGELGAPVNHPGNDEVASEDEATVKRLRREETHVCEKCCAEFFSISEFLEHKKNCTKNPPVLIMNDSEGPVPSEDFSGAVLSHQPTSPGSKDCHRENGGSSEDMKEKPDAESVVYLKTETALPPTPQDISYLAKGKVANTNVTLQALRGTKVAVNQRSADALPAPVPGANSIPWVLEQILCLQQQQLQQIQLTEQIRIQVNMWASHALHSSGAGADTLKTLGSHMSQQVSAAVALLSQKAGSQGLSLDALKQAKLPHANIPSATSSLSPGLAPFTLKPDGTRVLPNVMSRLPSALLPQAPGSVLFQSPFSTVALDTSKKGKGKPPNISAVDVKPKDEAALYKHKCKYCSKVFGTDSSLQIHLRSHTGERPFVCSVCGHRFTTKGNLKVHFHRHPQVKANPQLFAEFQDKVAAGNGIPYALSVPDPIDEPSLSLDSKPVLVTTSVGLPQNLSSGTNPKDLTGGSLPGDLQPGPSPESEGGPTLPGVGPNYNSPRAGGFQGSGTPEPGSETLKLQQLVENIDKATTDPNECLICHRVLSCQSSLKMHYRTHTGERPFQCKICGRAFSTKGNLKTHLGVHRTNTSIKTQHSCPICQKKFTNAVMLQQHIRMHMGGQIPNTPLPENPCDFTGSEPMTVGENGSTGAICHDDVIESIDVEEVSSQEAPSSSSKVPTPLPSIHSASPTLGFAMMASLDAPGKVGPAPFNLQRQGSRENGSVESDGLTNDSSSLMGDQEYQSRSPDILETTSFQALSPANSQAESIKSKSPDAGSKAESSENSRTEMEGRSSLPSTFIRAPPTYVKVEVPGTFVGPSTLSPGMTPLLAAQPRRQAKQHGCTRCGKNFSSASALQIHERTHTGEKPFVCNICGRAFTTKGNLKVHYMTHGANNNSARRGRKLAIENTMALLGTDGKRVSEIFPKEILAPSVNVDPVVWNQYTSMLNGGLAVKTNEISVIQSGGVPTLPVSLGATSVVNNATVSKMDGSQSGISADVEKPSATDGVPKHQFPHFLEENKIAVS
Method: universal PBM
Form: double-stranded DNA, one strand shown
Medium: in vitro
Tested at: 600 nM
Setting: 8-mer, flanks averaged, mean of replicates
Direction: higher = stronger binding
Quantity: E-score
CCATCGTA: 0.114
CCACCGCA: -0.196
CGAGGGAC: -0.359
GCACCCAC: -0.211
ATGACCAG: 0.0352
CACGGGCG: -0.341
ACGCCCTC: -0.119
AGAGACCA: -0.107

Set 3
Target: CCNB2, cyclin fold, Cln2 fusion (human)
Method: yeast growth competition, sequencing
Medium: yeast
Setting: strong parent motif
Baseline: not given
Direction: higher = stronger binding
Quantity: normalised enrichment score
Parent: viral docking peptide; YKVKRRLVFGADD
YKVKRRLEFGADD [V8E]: 2.36
YKVKRRLVIGADD [F9I]: 0.683
YKVGRRLVFGADD [K4G]: 0.264
YKVKRRLVFGTDD [A11T]: 1.97
YKVKRRLVFKADD [G10K]: 1.59
YDVKRRLVFGADD [K2D]: 2.53
YKVKRRLVHGADD [F9H]: 0.483
YKMKRRLVFGADD [V3M]: 0.365
YKVKRRLVMGADD [F9M]: 0.606
YKVKRCLVFGADD [R6C]: 0.707
YKVKRRLNFGADD [V8N]: 1.7
YKVKRRLVFGCDD [A11C]: 1.42
YKVKRRLVWGADD [F9W]: 0.92
YLVKRRLVFGADD [K2L]: 1.75
YKVKRHLVFGADD [R6H]: 0.748
YKVKRELVFGADD [R6E]: 0.394
YKVNRRLVFGADD [K4N]: 1.14

Other studies, line by line
CCOc1ccc(Nc2c3c(nc4ccccc24)CCC3)cc1  inhibition (Leishmania donovani; parasite growth; DD8 amphotericin B-resistant, intracellular amastigotes; 4 µM): 99% and 85% and 91% and 93% and 84%

Repeated from above (set 1):
KHDEEFCDM: inactive
AMDTHLYFE: inactive
SCINGQCPY: inactive
DGAEGINPY: inactive
EVIRATYPS: inactive
